Results of several laboratories.
Compare with care: the assays were run in different laboratories. ± gives the spread as reported.
relA residues 53-446: relA, residues 53-446 (Mycobacterium tuberculosis, UniProt P9WHG9)
Sequence of UniProt P9WHG9 (53-446, looked up): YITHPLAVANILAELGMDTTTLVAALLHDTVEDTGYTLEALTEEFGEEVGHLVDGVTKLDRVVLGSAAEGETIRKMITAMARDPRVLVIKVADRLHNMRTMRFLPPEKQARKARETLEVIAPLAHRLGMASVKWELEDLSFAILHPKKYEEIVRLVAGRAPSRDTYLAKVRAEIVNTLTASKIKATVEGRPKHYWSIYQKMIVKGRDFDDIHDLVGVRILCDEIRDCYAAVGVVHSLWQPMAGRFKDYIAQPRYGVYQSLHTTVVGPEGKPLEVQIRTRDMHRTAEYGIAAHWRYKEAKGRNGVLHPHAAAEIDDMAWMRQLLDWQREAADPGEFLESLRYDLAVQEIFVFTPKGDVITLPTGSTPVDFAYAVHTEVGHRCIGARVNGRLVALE
tmk: Thymidylate kinase (tmk, Mycobacterium tuberculosis, UniProt P9WKE1)
Sequence of UniProt P9WKE1 (whole entry, looked up): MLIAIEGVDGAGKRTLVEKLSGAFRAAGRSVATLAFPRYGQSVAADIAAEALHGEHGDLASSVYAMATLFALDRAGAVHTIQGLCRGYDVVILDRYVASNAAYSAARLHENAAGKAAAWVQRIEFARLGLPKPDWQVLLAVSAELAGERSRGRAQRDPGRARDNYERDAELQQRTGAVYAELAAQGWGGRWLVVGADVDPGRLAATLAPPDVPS
Sequence of UniProt Q7KZI7 (whole entry, looked up): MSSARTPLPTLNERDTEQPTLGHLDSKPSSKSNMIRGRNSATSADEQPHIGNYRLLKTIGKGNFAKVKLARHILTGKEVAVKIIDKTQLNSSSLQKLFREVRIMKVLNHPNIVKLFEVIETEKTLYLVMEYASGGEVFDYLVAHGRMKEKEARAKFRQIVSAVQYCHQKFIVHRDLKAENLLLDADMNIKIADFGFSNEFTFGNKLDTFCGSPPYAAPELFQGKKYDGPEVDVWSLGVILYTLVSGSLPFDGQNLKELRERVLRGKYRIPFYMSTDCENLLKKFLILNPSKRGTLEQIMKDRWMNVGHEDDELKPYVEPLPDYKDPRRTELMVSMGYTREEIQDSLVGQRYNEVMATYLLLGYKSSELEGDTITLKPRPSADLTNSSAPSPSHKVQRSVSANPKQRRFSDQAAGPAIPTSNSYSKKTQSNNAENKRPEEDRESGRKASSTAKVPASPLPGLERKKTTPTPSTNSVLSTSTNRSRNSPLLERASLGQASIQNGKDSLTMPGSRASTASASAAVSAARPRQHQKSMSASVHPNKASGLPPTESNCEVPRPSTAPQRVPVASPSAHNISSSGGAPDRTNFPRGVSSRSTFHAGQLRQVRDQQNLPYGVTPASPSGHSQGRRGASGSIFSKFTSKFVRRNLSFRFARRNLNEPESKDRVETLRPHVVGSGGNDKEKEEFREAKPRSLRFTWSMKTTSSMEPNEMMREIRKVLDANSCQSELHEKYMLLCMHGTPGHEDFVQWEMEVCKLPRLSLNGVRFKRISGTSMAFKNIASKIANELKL
Sequence of UniProt Q00535 (whole entry, looked up): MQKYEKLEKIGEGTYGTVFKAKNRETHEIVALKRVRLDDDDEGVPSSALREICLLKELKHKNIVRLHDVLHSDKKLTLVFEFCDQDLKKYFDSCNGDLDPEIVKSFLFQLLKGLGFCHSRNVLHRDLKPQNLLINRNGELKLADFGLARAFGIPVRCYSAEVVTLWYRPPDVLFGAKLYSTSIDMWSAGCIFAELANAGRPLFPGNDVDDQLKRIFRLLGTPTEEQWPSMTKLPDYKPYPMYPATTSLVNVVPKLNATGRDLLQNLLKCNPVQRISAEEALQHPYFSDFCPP
Sequence of UniProt P09668 (whole entry, looked up): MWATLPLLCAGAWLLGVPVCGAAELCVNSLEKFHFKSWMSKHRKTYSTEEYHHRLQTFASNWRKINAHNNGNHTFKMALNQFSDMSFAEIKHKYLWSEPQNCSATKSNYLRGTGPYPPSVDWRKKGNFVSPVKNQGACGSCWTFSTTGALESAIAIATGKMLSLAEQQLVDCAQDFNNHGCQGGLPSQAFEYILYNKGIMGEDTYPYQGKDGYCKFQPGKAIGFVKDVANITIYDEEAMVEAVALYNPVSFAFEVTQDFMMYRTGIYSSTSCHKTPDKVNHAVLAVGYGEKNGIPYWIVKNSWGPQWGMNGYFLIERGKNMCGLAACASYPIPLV
Sequence of UniProt Q92630 (whole entry, looked up): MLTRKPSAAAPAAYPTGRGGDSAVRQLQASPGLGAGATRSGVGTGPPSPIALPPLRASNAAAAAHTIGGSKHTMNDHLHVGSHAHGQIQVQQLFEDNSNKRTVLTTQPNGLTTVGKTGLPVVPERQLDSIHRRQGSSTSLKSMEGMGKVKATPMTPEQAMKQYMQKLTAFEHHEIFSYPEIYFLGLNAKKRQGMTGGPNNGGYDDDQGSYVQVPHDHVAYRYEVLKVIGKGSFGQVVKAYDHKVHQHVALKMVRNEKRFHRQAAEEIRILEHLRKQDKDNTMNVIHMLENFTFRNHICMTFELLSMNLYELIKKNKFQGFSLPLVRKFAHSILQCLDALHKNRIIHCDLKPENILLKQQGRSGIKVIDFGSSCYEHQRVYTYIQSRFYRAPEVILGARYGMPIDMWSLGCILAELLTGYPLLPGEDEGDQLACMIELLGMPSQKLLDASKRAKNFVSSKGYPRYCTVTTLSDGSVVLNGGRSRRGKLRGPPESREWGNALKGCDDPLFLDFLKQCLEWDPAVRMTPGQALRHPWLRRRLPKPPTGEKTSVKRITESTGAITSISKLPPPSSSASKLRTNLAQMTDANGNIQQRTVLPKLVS
Sequence of UniProt Q12809 (whole entry, looked up): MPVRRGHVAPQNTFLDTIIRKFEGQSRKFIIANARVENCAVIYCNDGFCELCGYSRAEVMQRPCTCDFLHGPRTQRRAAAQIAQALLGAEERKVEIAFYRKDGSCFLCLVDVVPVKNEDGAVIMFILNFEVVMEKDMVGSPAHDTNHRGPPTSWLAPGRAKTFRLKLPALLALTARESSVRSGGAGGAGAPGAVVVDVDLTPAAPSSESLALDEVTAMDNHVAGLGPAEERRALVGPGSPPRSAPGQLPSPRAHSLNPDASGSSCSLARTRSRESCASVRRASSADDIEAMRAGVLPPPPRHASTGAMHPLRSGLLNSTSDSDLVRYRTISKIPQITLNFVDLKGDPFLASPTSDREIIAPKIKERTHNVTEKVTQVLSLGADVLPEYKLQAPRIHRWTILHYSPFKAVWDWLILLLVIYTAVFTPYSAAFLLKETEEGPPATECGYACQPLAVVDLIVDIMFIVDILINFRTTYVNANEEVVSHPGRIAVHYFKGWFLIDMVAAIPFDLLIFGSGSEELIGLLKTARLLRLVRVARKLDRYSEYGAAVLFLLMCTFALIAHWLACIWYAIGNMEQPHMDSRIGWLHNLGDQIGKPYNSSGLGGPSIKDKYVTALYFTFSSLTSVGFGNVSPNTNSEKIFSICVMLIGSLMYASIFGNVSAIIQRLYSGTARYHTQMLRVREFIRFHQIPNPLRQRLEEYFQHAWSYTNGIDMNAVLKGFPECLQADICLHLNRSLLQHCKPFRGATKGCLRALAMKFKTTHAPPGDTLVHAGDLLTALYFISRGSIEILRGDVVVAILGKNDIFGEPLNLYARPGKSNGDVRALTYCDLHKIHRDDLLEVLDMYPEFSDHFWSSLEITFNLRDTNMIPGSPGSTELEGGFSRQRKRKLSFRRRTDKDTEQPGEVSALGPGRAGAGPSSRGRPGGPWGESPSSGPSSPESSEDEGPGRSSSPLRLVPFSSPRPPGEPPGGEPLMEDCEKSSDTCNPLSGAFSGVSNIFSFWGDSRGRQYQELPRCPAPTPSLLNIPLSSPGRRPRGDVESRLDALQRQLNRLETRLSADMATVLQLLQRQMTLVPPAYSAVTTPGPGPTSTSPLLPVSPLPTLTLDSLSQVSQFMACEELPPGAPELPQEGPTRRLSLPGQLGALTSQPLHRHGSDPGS
Sequence of UniProt Q9NRH2 (whole entry, looked up): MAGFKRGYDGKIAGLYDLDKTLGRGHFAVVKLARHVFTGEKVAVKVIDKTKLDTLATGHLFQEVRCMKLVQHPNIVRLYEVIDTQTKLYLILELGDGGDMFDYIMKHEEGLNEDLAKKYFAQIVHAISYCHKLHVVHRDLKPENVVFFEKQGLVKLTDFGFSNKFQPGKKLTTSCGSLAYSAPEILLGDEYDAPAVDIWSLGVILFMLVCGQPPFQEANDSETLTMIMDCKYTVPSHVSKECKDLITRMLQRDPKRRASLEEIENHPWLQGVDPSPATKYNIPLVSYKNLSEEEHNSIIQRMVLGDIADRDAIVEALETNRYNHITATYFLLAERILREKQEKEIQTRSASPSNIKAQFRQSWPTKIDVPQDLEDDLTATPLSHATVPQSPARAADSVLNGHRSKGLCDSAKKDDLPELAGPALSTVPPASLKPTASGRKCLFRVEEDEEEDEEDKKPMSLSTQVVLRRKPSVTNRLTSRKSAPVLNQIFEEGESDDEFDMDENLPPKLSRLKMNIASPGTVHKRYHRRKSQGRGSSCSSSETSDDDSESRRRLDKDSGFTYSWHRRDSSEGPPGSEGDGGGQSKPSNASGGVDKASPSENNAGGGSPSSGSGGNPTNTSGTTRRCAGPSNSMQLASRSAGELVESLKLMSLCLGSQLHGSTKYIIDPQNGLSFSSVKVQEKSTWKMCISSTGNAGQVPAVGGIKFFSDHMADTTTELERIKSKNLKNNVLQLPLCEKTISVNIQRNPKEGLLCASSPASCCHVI

CCCc1cc(O)c2c(c1)OC(C)(C)C1=C2[C@@H](O)[C@@](C)(O)CC1  IC50 (rat intestinal maltase; inhibitor; rat intestinal acetone powder; 10 min, 37 °C, together with: maltose 10 mM): 510 ± 70 µM
CS(C)(=O)=Nc1ccc(-c2ccc(-c3nc4cc(O[C@@H]5CO[C@H]6[C@@H]5OC[C@H]6O)[nH]c4cc3F)cc2)cc1  inhibition (MARK2 (Homo sapiens, UniProt Q7KZI7); enzyme activity, inhibitor; 10 µM): 5%
COc1cc2c(cc1NC(=O)c1cncn1C)C[C@H]1[C@H]3CCCC[C@@]23CCN1C  IC50 (KCNH2 (Homo sapiens, UniProt Q12809); radioligand binding, inhibitor): > 30 µM
CCC1=NN2C(=N)C(=Cc3ccc(Sc4ccc(C)cc4)o3)C(=O)N=C2S1  IC50 (relA residues 53-446; enzyme activity, inhibitor, fluorescence polarization): 63.1 µM
O=C1NC(=O)c2c1c1cc(F)c[n+]3c1c1c2c2cc(O)ccc2[n]1[Ru-4]312([N]=C=S)[S+]3CC[S+]1CC[S+]2CC3 (stereo not drawn)  remaining activity (Cyclin-dependent kinase 5, with p35 (CDK5, Homo sapiens, UniProt Q00535); enzyme activity; 100 nM, human enzyme, together with: 10 µM ATP; reference: untreated): 58%
CCCCCc1cc(O)c2c(c1)OC(C)(C)C1=C2[C@@H](O)[C@@](C)(O)CC1  IC50 (rat intestinal maltase; inhibitor; rat intestinal acetone powder; 10 min, 37 °C, together with: maltose 10 mM): 310 ± 40 µM
Cc1ccc(C(=O)OC(C)C)c(N2CCN(Cc3ccccc3OC(F)F)CC2)n1  IC50 (relA residues 53-446; enzyme activity, inhibitor, fluorescence polarization): 10 µM
Cc1cn(C2CC(O)C(COP(=O)(O)O)O2)c(=O)[nH]c1=O (stereo not drawn)  IC50 (tmk; enzyme activity, inhibitor, absorbance): 0.0712 µM
CCCCCc1cc(OC)c2c(c1)OC(C)(C)c1cc(O)c(C)cc1-2  IC50 (rat intestinal maltase; inhibitor; rat intestinal acetone powder; 10 min, 37 °C, together with: maltose 10 mM): 360 ± 10 µM
CCOC(=O)C1=C(C)NC(=NN=C2C(=O)Nc3ccc(C)cc32)NC1c1ccc(F)cc1 (stereo not drawn)  IC50 (tmk; enzyme activity, inhibitor, absorbance): 0.104 µM
O=C1NC2(CC2)COc2ncc(F)cc2[C@H]2COCCN2c2ccn3ncc1c3n2  serum hepatic lipase activity (Sprague-Dawley rat, female, serum; oral, 5 mg/kg/day, end of treatment, 4-week subacute toxicity): 4 ± 0.8 U/L
CC(C)[C@H]1NC(=O)C[C@H]2/C=C/CCSSC[C@@H](NC1=O)C(=O)N[C@H](Cc1cccc3ccccc13)C(=O)NCC(=O)O2  inhibition (DYRK2 (Homo sapiens, UniProt Q92630); enzyme activity, inhibitor; 10 µM): 1.7%
CC(C)(C)c1ccc(-c2cncc(-c3nc4ccc5cc(C(=O)O)cc(O)c5c4[nH]3)c2)cc1  IC50 (relA residues 53-446; enzyme activity, inhibitor, fluorescence polarization): 7.94 µM
CCCCCc1cc(O)c2c(c1)OC(C)(C)[C@@H]1CCC(C)=C[C@@H]21  IC50 (rat intestinal maltase; inhibitor; rat intestinal acetone powder; 10 min, 37 °C, together with: maltose 10 mM): 360 ± 60 µM
COc1ccccc1-c1n[nH]c2nc(NC3CCN(C(=O)Cc4ccc(F)cc4F)CC3)ncc12  relative abundance (bead binding, competition bead pull-down, refers to: LINJ.33.0870; Leishmania donovani extract; 10 µM; reference: vehicle): 0.79
CN(C)[C@H]1C[C@@]23CC[C@@]4(O2)C(=CC[C@]2(C)[C@@H](c5ccc6ccncc6c5)CC[C@H]24)C=C3[C@@H](O)[C@@H]1O  inhibition (SNRK (Homo sapiens, UniProt Q9NRH2); ATP probe labelling, inhibitor, KiNativ profiling; 1 µM): 1.9%
Fc1cccc(CN2CCN(c3ccccc3)CC2)c1OCC1CC1  IC50 (relA residues 53-446; enzyme activity, inhibitor, fluorescence polarization): 15.8 µM
CC(C)CC(C(=O)N1CC2(CC1C#N)C(=O)Nc1ccccc12)N(C)C(=O)c1cc2c(F)cc(F)c(F)c2[nH]1 (stereo not drawn)  IC50 (Pro-cathepsin H (Homo sapiens, UniProt P09668); enzyme activity, inhibitor): > 100 µM

A few entries again:
CCCc1cc(O)c2c(c1)OC(C)(C)C1=C2[C@@H](O)[C@@](C)(O)CC1  IC50 (rat intestinal maltase; inhibitor; rat intestinal acetone powder; 10 min, 37 °C, together with: maltose 10 mM): 510 ± 70 µM
CS(C)(=O)=Nc1ccc(-c2ccc(-c3nc4cc(O[C@@H]5CO[C@H]6[C@@H]5OC[C@H]6O)[nH]c4cc3F)cc2)cc1  inhibition (MARK2 (Homo sapiens, UniProt Q7KZI7); enzyme activity, inhibitor; 10 µM): 5%
